Measured values collected from several papers.
A part holds a random share of what one study measured.

Set 1
Target: Histone acetyltransferase KAT6A, winged helix 2, GST fusion (KAT6A, Homo sapiens, UniProt Q92794, residues 85-181)
Technique: protein binding microarray
Molecule type: double-stranded DNA, one strand shown
Sample: in vitro
Concentration: not given
Notes: 8-mer, flanks averaged, mean of 2 arrays, mostly near background
Baseline: not given
Reading: higher = stronger binding
Construct (chain): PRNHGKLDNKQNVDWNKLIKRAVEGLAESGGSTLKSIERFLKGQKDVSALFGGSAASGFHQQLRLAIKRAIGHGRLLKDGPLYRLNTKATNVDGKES
Oligonucleotide	E-score
TAACATTA	-0.246
ACGGCATA	0.182
ACCAACCT	0.0709
CCTCGTAG	-0.0554
CCTCTAAA	-0.0871
CGAAACTA	-0.0401
CGTAGTTC	-0.0746
CGTTTCTC	0.0473
GACCCTGC	0.101
ATGAGAGA	-0.117
ATGGGTTG	-0.124
AACACCAC	-0.0492
ACCGGCAG	0.0124
CGAACCCA	0.19
CCATTGGC	-0.0157
CCCGACGC	0.136
AACCGACT	-0.0185
GGTTACTA	-0.0771
GATGCAAC	0.00255
AATGACAC	-0.215
CGGCTCAG	0.265
CGCCTATC	-0.109
GGGGTGCA	0.0596
CTGATCGC	0.0402
CGCGGAAC	0.102

Set 2
Target: RNA binding protein fox-1 homolog 2, RRM domain, GST-SBP tag (RBFOX2, Homo sapiens, UniProt O43251-10, residues 100-194)
Technique: RNA Bind-n-Seq
Molecule type: RNA
Sample: in vitro
Concentration: 365 nM
Notes: natural RNA segment, single round, ends assumed
Baseline: no-protein control
Reading: higher = stronger binding
All sequences stand within: GGGAGUUCUACAGUCCGACGAUC … UGGAAUUCUCGGGUGCCAA
Construct (chain): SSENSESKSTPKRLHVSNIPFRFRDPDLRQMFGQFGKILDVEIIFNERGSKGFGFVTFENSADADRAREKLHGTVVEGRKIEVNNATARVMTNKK
Oligonucleotide	RBNS enrichment (R)
AAUAUGAGCAUGCCCGCCUGGCUAGUAGGCAUCUGUAAGAGUGUCGCCAGGCCCGCGCCAGCUGAGGCCUCAGACUAGCCAGGCAAGAGCCGUCUGACCAGUUGGCUGGC	0.686
UCGUUCUCUCCCCAUGGGGCACUGACAGAGAAAUGAAAUAGUUUUAUCUGGAAAAUUCCAGAGCUAUUAUUUACUCCUUACCAAGGGAAGUUACUUCUUGUAAAAACUUU	0.397
CGCAUGCCUGGGCCCUGCUGGGCUCUCCCACUCCAGGCGGACCCUGGGGGCCAGUGAAGGAAGCUCCCGGAAAGAGCAGAGGGAGAGCGGGUAGGCGGCUGUGUGACUCU	1.19
AUGUGGCUUUGCAGGCCCGGCCCAUGCCUCUGCAGCCACACAGCACAACGUCUCUACUGUGCCUAUUACCAAGCGAGUGUUUGUAACCACAUACUUUUGGAAUCCACUGC	0.353
UAGGAAGCUGGUGAUAUUAAUGCUUACUGUUCUAAUCCAGUGGCCAAGGUAUUAAGAAUUUGCAAGUAUUUUAGAUUUUCGAAAAUGAAUGAGAGAACUGUGUAAACACC	0.542
CCAUUGAGAUCUUCCUGCUGAGUCCUUUCCAGGGGCCAAUUUUGGAUGAGCAUGGAGCUGUCACCUCUCAGCUGCUGGAUGACUUGAGAUGAAAAAGGAGAGACAUGGAA	5.96
AAAUGCCAGCCAGGUGCUGGCUGUGGGCUUUCCCUCCUCAACACCCUUAUUUAGAAAGGAAACUGUGUGGGGGGAGAUGCAGGCCUGAGCCCCAUAGCGAGCUUGCCUUU	0.415
ACAGGCUUCCAGGUUAGGCACUGUGAAUAGGCUCAGCUCCUCUAGAGAGCUGAAGCCAUCUGGUUCUUAGAUUCCUCUCCCAGUCCUCUUUCCCAUUGUUCUGUUGCUCC	0.44

Set 3
Target: Ras GTPase-activating protein-binding protein 1, full length (G3BP1, Homo sapiens, UniProt Q13283)
UniProt Q13283, sequence (whole entry, looked up): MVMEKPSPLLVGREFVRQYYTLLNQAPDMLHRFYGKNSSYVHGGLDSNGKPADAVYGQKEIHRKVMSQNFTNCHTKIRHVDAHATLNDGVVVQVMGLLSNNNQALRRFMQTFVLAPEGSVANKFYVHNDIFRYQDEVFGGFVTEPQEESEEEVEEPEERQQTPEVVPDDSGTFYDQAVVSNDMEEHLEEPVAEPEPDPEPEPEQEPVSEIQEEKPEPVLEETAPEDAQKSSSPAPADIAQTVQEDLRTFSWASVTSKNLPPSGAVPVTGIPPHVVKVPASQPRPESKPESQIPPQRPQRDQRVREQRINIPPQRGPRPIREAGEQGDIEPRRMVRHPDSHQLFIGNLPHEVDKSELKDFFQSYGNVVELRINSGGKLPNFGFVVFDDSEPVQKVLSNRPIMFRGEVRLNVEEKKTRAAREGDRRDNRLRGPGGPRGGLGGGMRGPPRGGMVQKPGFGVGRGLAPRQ
Technique: RNA Bind-n-Seq
Molecule type: RNA
Sample: in vitro
Concentration: 200 nM
Notes: whole 134-nt RNA, ends assumed
Together with: 150 mM KCl
Baseline: input library
Reading: higher = stronger binding
All sequences stand within: GGGAGUUCUACAGUCCGACGAUC … UGGAAUUCUCGGGUGUCAAGG
Oligonucleotide	log2 enrichment
UUCCUCAAGUCCUGUGCUACACAUCGUAUGUACCGAAUCGGUGGUGGUGGGAAAGUAUUAUGUUACGCCGUUCGGAUCUGCACUUCCAGC	-0.384
UGGGAGGUCGAUUUUGUUUAUUUUUUUAGCUCAUUUCCAGGGGUGGGAAUUUUUUUUUAAUAUGUGUCAUGAAUAAAGUUGUUUUUGAAA	-0.502
UGUAGAAAAGGCACUGGACUAACACUUGGCUGUAUCUUGUAACAGGCAUGUUAUGUUACCCAGAGAACUUUCCAAACAAGUACCUAAAAC	0.062
CCUCAAGUCCUGUGCUACACAUCGUAUGUACCGAAUCGGUUGGUUGGUUGGGAAAGUAUUAUGUUACGCCGUUCGGAUCUGCACUUCCAG	-0.125
UGGGAGGUGGAUUUUGUUUAUUUUUUUAGCUCAUUUCCAGGGGUGUGAAUUUUUUUUUAAUAUGUGUCAUGAAUAAAGUUGUUUUUGAAA	0.345
UUUAGCCUGUGGAAUGAUAGCAGUAGGGUCCUGCAAUGGAGAUGUAACUUCCACUAUCCUUCAGACCAUCAUGGAGAAGUCAGAGACUGA	-0.675
CUCAAGUCCUGUGCUACACAUCGUAUGUACCGAAUCGGAAAGGUGGUUUUUGGAAAGUAUUAUGUUACGCCGUUCGGAUCUGCACUUCCA	-0.652
UCCUGUGCUACACAUCGUAUGUACCGAAUCGGAAAAAGGGGAAAAAGGGGAAAAAGGGGAAAGUAUUAUGUUACGCCGUUCGGAUCUGCA	-0.0732
UGGGAGGUGGAUUUUGUUUAUUUUUUUAGCUCAUUUCCAGGGGUGGGACUUUUUUUUUAAUAUGUGUCAUGAAUAAAGUUGUUUUUGAAA	0.168

Set 4
Target: Interferon regulatory factor 7, full length, phosphomimetic (IRF7, Homo sapiens, UniProt Q92985, residues 1-503, S471D/S472D/S475D/S476D/S477D/S483D/S484D/S487D)
Technique: protein-binding microarray
Molecule type: double-stranded DNA, one strand shown
Sample: in vitro
Concentration: 2200 nM top
Notes: 60-bp whole probe
Together with: salmon DNA 0.4 mg/ml
Baseline: random background probes
Reading: higher = stronger binding
All sequences stand within: GCCTAGCAC … GTCTTGATTCGCTTGACGCTGCTG
Target sequence (chain): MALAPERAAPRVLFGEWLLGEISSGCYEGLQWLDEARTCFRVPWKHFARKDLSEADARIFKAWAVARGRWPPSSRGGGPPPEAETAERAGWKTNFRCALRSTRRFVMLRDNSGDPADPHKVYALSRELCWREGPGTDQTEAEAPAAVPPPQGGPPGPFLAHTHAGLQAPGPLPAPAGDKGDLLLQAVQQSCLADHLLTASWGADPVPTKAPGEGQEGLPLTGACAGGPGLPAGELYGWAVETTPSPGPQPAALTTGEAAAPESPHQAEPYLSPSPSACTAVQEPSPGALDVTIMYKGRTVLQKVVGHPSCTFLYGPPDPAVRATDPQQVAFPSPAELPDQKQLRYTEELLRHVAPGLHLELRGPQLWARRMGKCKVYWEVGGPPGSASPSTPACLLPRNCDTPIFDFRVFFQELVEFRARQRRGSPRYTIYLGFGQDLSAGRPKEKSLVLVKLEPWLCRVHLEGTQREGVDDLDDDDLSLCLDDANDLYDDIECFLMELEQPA
Oligonucleotide	fitted relative affinity
TTAGGACTGCTACTGCTTGAGTGCTAG	-0.239 z-score
TAAGATTTCAGTTCCGATTAGTGCTAG	1.79 z-score
TTAGGTTTTGACTATCGGTTAGTGCTA	0.668 z-score
TTAGGACTGCTTTTCCATTAGTGCTAG	1.01 z-score
TTAGGACTGTTTCTCCTTTAGTGCTAG	1.29 z-score
GACGTACTGGGGACTGGGGACGTGCTA	-0.319 z-score
GGGTCTGTGCCTTTTTTTTTGTGCTAG	0.0915 z-score
CGCAGGGCAGGCTTCGGCCGGTGCTAG	-1.89 z-score
CCGCATATCGGGGTGCGCCCGGTGCTA	0.34 z-score
GACGGTTTCGGGTTTCTGGACGTGCTA	8.54 z-score
GACGAACTGGGGTTTCGAAACGTGCTA	1.44 z-score
TTAGGACTGGGTCTCGGTTTGTGCTAG	0.684 z-score
TTAGATTTCGGGTTTTGATTAGTGCTA	3.82 z-score
CCGTGTTTCTCAACCATTTTGTGCTAG	2.69 z-score
GACGGTCTCCTACTGCTGAGGTGCTAG	0.212 z-score
GACGGTTTCGGGTTTCGTGACGTGCTA	9.02 z-score
TTAGGATTCCTTATCCTTTAGTGCTAG	0.779 z-score
TCAATTTCAGTTTTCTTACTGTGCTAG	3.39 z-score
GTAAATCTTTTTCCCTATTAGTGCTAG	1.32 z-score

For quick reference, copied from above (set 2):
Oligonucleotide	RBNS enrichment (R)
AAUAUGAGCAUGCCCGCCUGGCUAGUAGGCAUCUGUAAGAGUGUCGCCAGGCCCGCGCCAGCUGAGGCCUCAGACUAGCCAGGCAAGAGCCGUCUGACCAGUUGGCUGGC	0.686
UCGUUCUCUCCCCAUGGGGCACUGACAGAGAAAUGAAAUAGUUUUAUCUGGAAAAUUCCAGAGCUAUUAUUUACUCCUUACCAAGGGAAGUUACUUCUUGUAAAAACUUU	0.397
CGCAUGCCUGGGCCCUGCUGGGCUCUCCCACUCCAGGCGGACCCUGGGGGCCAGUGAAGGAAGCUCCCGGAAAGAGCAGAGGGAGAGCGGGUAGGCGGCUGUGUGACUCU	1.19
AUGUGGCUUUGCAGGCCCGGCCCAUGCCUCUGCAGCCACACAGCACAACGUCUCUACUGUGCCUAUUACCAAGCGAGUGUUUGUAACCACAUACUUUUGGAAUCCACUGC	0.353
UAGGAAGCUGGUGAUAUUAAUGCUUACUGUUCUAAUCCAGUGGCCAAGGUAUUAAGAAUUUGCAAGUAUUUUAGAUUUUCGAAAAUGAAUGAGAGAACUGUGUAAACACC	0.542
CCAUUGAGAUCUUCCUGCUGAGUCCUUUCCAGGGGCCAAUUUUGGAUGAGCAUGGAGCUGUCACCUCUCAGCUGCUGGAUGACUUGAGAUGAAAAAGGAGAGACAUGGAA	5.96
AAAUGCCAGCCAGGUGCUGGCUGUGGGCUUUCCCUCCUCAACACCCUUAUUUAGAAAGGAAACUGUGUGGGGGGAGAUGCAGGCCUGAGCCCCAUAGCGAGCUUGCCUUU	0.415
ACAGGCUUCCAGGUUAGGCACUGUGAAUAGGCUCAGCUCCUCUAGAGAGCUGAAGCCAUCUGGUUCUUAGAUUCCUCUCCCAGUCCUCUUUCCCAUUGUUCUGUUGCUCC	0.44
